Results pooled from the literature.
Lines come from different studies, so protocols differ. Numbers after ± are the reported error.
UniProt P20618, sequence (whole entry, looked up): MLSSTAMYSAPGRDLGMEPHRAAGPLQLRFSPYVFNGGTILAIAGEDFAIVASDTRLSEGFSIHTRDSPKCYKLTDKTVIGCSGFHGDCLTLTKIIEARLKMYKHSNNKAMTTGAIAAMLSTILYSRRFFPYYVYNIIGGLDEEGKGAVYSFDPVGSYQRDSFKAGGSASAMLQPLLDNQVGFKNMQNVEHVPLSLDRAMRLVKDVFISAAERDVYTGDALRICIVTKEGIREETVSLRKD
UniProt P28074, sequence (whole entry, looked up): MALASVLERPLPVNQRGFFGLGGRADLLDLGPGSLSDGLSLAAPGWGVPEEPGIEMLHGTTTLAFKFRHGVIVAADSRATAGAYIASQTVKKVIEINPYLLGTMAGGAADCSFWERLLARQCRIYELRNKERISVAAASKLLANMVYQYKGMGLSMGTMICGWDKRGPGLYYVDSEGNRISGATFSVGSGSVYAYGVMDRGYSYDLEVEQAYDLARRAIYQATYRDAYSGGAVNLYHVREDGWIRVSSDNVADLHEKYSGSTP
UniProt P16389, sequence (whole entry, looked up): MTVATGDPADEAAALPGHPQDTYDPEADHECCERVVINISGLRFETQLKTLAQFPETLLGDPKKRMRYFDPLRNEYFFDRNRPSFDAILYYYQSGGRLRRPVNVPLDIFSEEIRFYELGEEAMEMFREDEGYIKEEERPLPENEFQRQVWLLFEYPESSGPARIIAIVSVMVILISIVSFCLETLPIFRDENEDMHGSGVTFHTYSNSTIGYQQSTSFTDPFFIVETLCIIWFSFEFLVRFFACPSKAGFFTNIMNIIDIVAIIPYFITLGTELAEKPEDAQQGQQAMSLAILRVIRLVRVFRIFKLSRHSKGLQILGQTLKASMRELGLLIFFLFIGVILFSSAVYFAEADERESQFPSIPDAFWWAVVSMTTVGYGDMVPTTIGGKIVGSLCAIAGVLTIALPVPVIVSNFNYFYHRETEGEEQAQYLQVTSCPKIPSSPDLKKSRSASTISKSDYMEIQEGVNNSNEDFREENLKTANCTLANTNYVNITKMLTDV
UniProt Q09470, sequence (whole entry, looked up): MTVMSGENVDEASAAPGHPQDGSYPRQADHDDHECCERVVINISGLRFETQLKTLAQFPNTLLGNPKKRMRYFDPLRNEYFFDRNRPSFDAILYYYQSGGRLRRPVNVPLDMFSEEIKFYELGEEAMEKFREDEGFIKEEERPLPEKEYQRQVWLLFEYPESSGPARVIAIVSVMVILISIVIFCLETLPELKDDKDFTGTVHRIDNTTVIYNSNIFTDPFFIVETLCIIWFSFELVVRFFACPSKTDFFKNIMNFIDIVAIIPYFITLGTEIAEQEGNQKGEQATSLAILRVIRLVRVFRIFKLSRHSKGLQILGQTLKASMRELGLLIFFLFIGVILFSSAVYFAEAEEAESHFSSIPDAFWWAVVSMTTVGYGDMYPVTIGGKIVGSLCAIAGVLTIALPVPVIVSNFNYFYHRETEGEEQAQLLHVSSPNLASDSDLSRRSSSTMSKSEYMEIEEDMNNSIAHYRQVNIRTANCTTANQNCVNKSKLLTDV
UniProt Q9NPD5, sequence (whole entry, looked up): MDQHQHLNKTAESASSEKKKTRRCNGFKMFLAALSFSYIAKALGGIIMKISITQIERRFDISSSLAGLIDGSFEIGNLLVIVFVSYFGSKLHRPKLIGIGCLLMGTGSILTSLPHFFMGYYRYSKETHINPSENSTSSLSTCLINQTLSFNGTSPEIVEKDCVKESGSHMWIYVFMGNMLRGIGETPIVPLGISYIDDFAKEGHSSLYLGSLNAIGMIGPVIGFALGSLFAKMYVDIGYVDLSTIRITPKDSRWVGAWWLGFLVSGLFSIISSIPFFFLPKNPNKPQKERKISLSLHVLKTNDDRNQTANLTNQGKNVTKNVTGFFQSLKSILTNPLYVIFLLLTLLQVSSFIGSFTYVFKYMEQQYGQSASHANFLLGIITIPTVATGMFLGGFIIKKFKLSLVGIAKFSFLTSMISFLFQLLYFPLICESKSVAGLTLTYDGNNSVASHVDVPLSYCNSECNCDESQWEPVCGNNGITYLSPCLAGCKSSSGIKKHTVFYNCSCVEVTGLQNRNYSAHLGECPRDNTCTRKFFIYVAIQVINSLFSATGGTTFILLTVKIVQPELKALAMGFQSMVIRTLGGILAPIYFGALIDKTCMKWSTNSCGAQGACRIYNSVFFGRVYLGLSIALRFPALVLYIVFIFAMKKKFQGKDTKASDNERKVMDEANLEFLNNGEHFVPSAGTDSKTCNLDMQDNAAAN
UniProt Q96RJ0, sequence (whole entry, looked up): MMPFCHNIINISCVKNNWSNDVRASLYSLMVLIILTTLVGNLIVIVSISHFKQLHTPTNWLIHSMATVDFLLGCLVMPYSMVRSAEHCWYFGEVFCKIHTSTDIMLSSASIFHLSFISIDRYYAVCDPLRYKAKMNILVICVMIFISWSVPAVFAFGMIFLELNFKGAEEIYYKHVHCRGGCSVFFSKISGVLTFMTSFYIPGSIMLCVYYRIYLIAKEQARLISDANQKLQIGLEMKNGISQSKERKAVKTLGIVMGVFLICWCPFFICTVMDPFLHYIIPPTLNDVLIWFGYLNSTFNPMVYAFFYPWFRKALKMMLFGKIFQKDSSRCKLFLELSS
UniProt Q9HC97, sequence (whole entry, looked up): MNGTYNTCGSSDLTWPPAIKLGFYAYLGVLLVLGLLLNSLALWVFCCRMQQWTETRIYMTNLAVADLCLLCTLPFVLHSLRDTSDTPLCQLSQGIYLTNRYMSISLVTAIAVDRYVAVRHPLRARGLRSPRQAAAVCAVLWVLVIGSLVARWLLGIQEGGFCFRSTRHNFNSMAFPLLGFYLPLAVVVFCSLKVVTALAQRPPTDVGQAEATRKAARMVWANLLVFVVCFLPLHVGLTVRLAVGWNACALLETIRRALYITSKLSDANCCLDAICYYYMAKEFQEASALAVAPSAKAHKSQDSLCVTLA
UniProt O95271, sequence (whole entry, looked up): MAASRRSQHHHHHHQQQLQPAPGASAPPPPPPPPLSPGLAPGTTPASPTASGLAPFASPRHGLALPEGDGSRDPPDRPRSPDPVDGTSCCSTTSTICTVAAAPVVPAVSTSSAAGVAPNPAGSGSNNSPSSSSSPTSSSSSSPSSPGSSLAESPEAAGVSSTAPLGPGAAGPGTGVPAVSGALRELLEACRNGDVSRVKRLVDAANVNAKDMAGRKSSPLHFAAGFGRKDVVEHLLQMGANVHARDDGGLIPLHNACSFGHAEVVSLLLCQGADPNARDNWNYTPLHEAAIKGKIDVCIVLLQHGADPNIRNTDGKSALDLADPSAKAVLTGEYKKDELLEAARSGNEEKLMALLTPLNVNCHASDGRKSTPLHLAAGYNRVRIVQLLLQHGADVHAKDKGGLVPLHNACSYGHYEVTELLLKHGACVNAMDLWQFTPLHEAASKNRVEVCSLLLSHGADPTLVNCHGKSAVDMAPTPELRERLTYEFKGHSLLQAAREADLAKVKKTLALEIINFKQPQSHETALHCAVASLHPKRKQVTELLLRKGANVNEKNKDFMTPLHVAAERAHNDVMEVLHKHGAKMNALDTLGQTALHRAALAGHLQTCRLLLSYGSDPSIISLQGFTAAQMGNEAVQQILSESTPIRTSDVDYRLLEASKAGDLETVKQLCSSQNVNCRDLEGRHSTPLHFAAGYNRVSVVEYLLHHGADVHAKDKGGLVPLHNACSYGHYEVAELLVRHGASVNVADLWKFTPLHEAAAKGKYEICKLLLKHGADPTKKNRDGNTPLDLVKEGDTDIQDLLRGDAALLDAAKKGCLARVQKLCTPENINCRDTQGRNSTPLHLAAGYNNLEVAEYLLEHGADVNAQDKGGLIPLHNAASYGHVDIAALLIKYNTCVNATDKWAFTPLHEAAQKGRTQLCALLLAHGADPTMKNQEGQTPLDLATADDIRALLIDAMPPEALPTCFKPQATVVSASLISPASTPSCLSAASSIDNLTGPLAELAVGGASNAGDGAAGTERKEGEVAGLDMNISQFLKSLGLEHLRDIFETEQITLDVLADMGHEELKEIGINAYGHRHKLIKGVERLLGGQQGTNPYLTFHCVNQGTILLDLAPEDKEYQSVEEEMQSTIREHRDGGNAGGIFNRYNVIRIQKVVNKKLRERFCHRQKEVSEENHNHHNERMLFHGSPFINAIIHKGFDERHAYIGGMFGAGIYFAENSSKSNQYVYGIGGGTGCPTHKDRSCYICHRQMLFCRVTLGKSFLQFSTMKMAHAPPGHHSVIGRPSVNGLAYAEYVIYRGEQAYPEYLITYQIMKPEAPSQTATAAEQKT
UniProt Q99685, sequence (whole entry, looked up): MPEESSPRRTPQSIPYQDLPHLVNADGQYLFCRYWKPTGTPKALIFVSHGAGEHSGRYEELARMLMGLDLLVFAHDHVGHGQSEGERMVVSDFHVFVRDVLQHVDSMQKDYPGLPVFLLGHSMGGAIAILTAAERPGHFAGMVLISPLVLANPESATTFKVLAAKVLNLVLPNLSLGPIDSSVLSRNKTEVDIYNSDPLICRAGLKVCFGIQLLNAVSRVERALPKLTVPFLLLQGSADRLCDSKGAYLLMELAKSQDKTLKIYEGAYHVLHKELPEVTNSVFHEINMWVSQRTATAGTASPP
UniProt P41240, sequence (whole entry, looked up): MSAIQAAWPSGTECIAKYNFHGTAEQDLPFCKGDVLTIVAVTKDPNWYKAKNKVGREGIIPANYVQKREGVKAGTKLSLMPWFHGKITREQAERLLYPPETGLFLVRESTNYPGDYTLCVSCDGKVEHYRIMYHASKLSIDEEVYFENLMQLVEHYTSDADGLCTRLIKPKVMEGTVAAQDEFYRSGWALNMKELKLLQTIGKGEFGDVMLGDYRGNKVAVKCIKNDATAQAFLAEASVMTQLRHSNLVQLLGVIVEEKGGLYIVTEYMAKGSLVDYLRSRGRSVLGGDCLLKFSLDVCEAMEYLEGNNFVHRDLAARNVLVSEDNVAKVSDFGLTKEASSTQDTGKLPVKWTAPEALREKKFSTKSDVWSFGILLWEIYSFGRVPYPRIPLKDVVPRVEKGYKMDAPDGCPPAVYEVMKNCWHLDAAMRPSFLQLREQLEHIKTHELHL

SMILES | target | test | system | conditions | IC50 [nM]
COc1ccc([C@@H]2CC(=O)c3c(O)cc(O[C@@H]4O[C@H](CO[C@@H]5O[C@@H](C)[C@H](O)[C@@H](O)[C@H]5O)[C@@H](O)[C@H](O)[C@H]4O)cc3O2)cc1O | SLCO1B3 (Homo sapiens, UniProt Q9NPD5) | 8-FcA uptake, inhibitor, flow cytometry | HEK293 expressing SLCO1B3 | 10 min, added: 8-FcA 2.5 µM | > 100000
Cn1cc(-c2cc(N3CCCCS3(=O)=O)ccc2N[C@H]2CC[C@@](C)(O)CC2)c2cc[nH]c2c1=O | Bromodomain-containing protein 4, BD1 (BRD4, Homo sapiens, UniProt O60885) |  |  |  | 2.6 ± 56
C=CC(=O)N1CCc2ccc(-n3c(=O)ccc4cnc5ccc(-c6cnn(C)c6)cc5c43)cc21 | CSK (Homo sapiens, UniProt P41240) | enzyme activity, inhibitor |  |  | > 10000
Cc1ccc(CNC(=O)[C@@H](NC(=O)[C@H](CCc2ccccc2)NC(=O)[C@H](CCc2ccccc2)N(C)C)C(C)C)cc1 | Proteasome component C5/PSMB5 (Homo sapiens, UniProt P20618+P28074) | β5 activity, inhibitor |  | added: Suc-LLVY-AMC, PA28α-activated | 807
COc1cncc(-c2cc(F)cc(CNC(=O)c3cc(N4CC[C@@](C#N)(C5CC5)C4=O)cc(C)n3)c2)c1 | Proline--tRNA ligase (Plasmodium falciparum, UniProt Q8I5R7) | enzyme activity, inhibitor, absorbance |  |  | 101
CSCC[C@H](NC(=O)[C@H](Cc1ccccc1)NC(=O)[C@H](CO)NC(=O)CNC(=O)[C@@H](NC(=O)[C@H](C)NC(=O)[C@H](Cc1c[nH]c2ccccc12)NC(=O)[C@H](CC(C)C)NC(=O)[C@@H]1CCC(=O)N1)C(C)C)C(N)=O | GRPR (Homo sapiens, UniProt P30550) | ligand displacement in cells, radioligand |  |  | > 3000
O=C(/C=C/c1ccc(O)c2oc(-c3ccc(O)c(O)c3)cc12)O[C@H](Cc1ccc(O)c(O)c1)C(=O)O | GPR35 (Homo sapiens, UniProt Q9HC97) | DMR desensitization | HT-29 | with Tween-80 0.025%, added: zaprinast | 8650
COc1ccc(C(=O)/C=C(\O)C(F)(F)C(F)(F)F)c(O)c1 | Formate-nitrite transporter (FNT, Plasmodium malariae, UniProt A0A1C3KYI2) |  |  |  | 150 ± 10
O=C(NC1CCC1)c1ccc2nc(-c3cccc(NS(=O)(=O)NCCc4c[nH]cn4)c3)cn2c1 | Protein ENL (MLLT1, Homo sapiens, UniProt Q03111) |  |  |  | 7
CNC(=O)C1CCN(c2cc(C)ccc2NC(=O)c2ccc(-c3cc(O)ccc3C)c(C)c2)CC1 | EPHA5 (Homo sapiens, UniProt P54756) | target engagement in cells, BRET |  |  | 15
N#Cc1c(C(F)(F)F)cc(-c2ccc(Cl)cc2)nc1SCC(=O)Nc1ccccc1F | TAAR1 (Homo sapiens, UniProt Q96RJ0) |  |  |  | > 10000
O=C(OC(C(F)(F)F)C(F)(F)F)N1CCC(CCn2ccc3ccncc32)CC1 | MGLL (Homo sapiens, UniProt Q99685) | enzyme activity, inhibitor |  |  | 560
COc1ccccc1N1CCN(c2nc3c(c(=O)[nH]2)CCCC3)CC1 | TNKS (Homo sapiens, UniProt O95271) | enzyme activity, inhibitor, ELISA |  |  | 42.2
CN(c1ccccc1)S(=O)(=O)c1cccc(C(=O)N2CCN(C(=O)Cc3ccc(F)cc3)CC2)c1 | KCNA2/KCNA1 (Homo sapiens, UniProt P16389+Q09470) | potassium current, inhibitor, automated patch clamp | CHO-K1, concatemer expressing |  | 1660
O=C(NCCN1CCC(Cc2ccccc2)CC1)c1ccc2cc(Br)ccc2c1 | SLC6A2 (Homo sapiens, UniProt P23975) | transporter uptake, inhibitor, radiometric |  |  | 20 to 190
